{"data": "Assay results collected from several papers", "note": "Protocols differ between the studies behind these lines. Numbers after ± are the reported error."}
{"Compound": "NC(CO)(CO)CCc1ccc(Sc2cccc(OCc3ccccc3)c2)cc1Cl", "system": "human, fed, whole blood", "setting": "oral, 3 mg, geometric mean, with: itraconazole 200 mg once daily", "Cmax": "1.22 ng/mL"}
{"Compound": "Nc1ccn([C@@H]2O[C@H](CO)[C@@H](O)C2(F)F)c(=O)n1", "system": "human, plasma", "setting": "intravenous, 800 mg/m^2, mean, before paricalcitol", "Cmax": "18000 ng/mL"}
{"Compound": "COC(=O)N[C@@H](C)CNc1nccc(-c2cn(C(C)C)nc2-c2cc(Cl)cc(NS(C)(=O)=O)c2F)n1", "system": "human patients, plasma", "setting": "oral, 450 mg twice daily, day 1, single dose, geometric mean, with: binimetinib 45 mg once daily", "Cmax": "6150 ng/mL"}
{"Compound": "NC1(C(=O)N[C@@H](CCO)c2ccc(Cl)cc2)CCN(c2nc[nH]c3nccc2-3)CC1", "system": "human patients, plasma", "setting": "dose not given, cohort 160/320, cycle 2, geometric mean", "Cmax": "353 ng/mL"}
{"Compound": "CC1(COc2ccc3c(c2)ncn3-c2ccc3cccc(N4CCC(N)CC4)c3n2)COC1", "system": "human patients, recurrent/progressive HGG or DIPG, serum", "setting": "oral, 100 mg/m^2, day 28, median", "Cmax": "846 nM"}
{"Compound": "CCn1cc(C(=O)N2CCOCC2)c(=O)c2cc(NC3Cc4ccccc4C3)cnc21", "system": "humans, fasted, plasma", "setting": "oral, 300 mg, single dose, suspension", "Cmax": "692 ng/mL"}
{"Compound": "N#Cc1cc(NC(=O)[C@H]2c3ccccc3C(=O)N(CC(F)(F)F)[C@@H]2c2cccnc2)ccc1F", "system": "human, plasma", "setting": "oral, 75 mg, median", "Cmax": "178 ng/mL"}
{"Compound": "FC(F)(F)c1ccc(CNc2ccc(Cc3c[nH]c4ncc(Cl)cc34)cn2)cn1", "system": "human, plasma", "setting": "oral, 600 mg, single dose", "Cmax": "4140 ng/mL"}
{"Compound": "Cn1nc2c(=O)n(C3CC3)cnc2c1[C@](O)(c1cnc(C(F)(F)F)c(Cl)c1)C(F)(F)F", "system": "humanized SCID mice, blood", "setting": "1 mg/kg once daily, 6 days, infected", "Cmax": "506 nM"}
{"Compound": "CC(=O)N1CCC(Nc2cc(C(=O)NC[C@H](O)CN3CCc4ccccc4C3)ncn2)CC1", "system": "human, plasma", "setting": "oral, 300 mg, week 3 day 1, geometric mean", "Cmax": "890 ng/mL"}
{"Compound": "COc1ccc(F)cc1C(=O)NCc1ccc(-c2nn([C@@H](C)C(F)(F)F)c(N)c2C(N)=O)cc1", "system": "human, fasted, plasma", "setting": "oral, 200 mg single dose, pilot food-effect study", "Cmax": "5450 ng/mL"}
{"Compound": "Cc1cn(C(=O)c2c(-c3c(Cl)cc(Cl)cc3Cl)noc2C(C)(C)F)c2cccc(/C=C/C(=O)O)c12", "system": "human patients", "setting": "1000 mg bid, cycle 8 day 1", "Cmax": "38300 ng/mL"}
{"Compound": "COC(=O)N[C@H](C(=O)N1CCC[C@H]1c1ncc(-c2cc(F)c3c(c2)O[C@@H](c2cnc(C4CC4)s2)n2c-3cc3cc(-c4cnc([C@@H]5CCCN5C(=O)[C@@H](NC(=O)OC)C(C)C)[nH]4)ccc32)[nH]1)C(C)C", "system": "healthy adult humans, plasma", "setting": "oral, 180 mg once daily, day 6, fasted, steady state, alone", "Cmax": "375 ng/mL"}
{"Compound": "N#Cc1ccc2c(c1)[C@H]1CCCN(C(=O)c3ccc4[nH]cnc4c3)[C@H]1C2", "system": "human, plasma", "setting": "oral, 240 mg once daily, after first dose", "Cmax": "13800 nM"}
{"Compound": "C[C@H](CCC(=O)O[C@@H]1O[C@H](C(=O)O)[C@@H](O)[C@H](O)[C@H]1O)[C@H]1CC[C@H]2[C@@H]3[C@H](O)C[C@@H]4C[C@H](O)CC[C@]4(C)[C@H]3CC[C@]12C", "system": "human, plasma", "setting": "concentration not given, endogenous baseline diurnal", "Cmax": "25.9 ± 3.1 nM"}
{"Compound": "CC(C)NC(=O)COc1cccc(-c2nc(Nc3ccc4[nH]ncc4c3)c3ccccc3n2)c1", "system": "human male, plasma", "setting": "oral, 200 mg, day 6, alone, adjusted geometric mean", "Cmax": "2050 ng/mL"}
{"Compound": "CC1=C(c2cccc(O)c2)[C@H](c2ccc(OCCN3CC(CF)C3)cc2)Oc2ccc(O)cc21", "system": "human, plasma", "setting": "oral, 1400 mg single dose, geometric mean", "Cmax": "159 ng/mL"}
{"Compound": "Cc1cc(Nc2ccc(S(F)(F)(F)(F)F)cc2)n2nc(C(C)(F)F)nc2n1", "test": "LC-MS/MS", "system": "human vivax malaria patients, plasma", "setting": "oral, 800 mg, mean", "Cmax": "10100 ng/mL"}
{"Compound": "Cc1ncnc2c1ccn2[C@@H]1C[C@H](Oc2cc(C(F)F)c(F)c3c2CNCC3)[C@@H](O)[C@H]1O", "system": "human, plasma", "setting": "0.5 mg once daily", "Cmax": "4.14 ng/mL"}
{"Compound": "C[C@H](CCC(=O)O)[C@H]1CC[C@H]2[C@@H]3[C@H](O)C[C@@H]4C[C@H](O)CC[C@]4(C)[C@H]3CC[C@]12C", "system": "human, plasma", "setting": "oral, dose not given", "how to read": "reference: untreated", "Cmax": "1240 ± 293 nM"}
{"Compound": "Cn1ncnc1[C@H]1c2n[nH]c(=O)c3cc(F)cc(c23)N[C@@H]1c1ccc(F)cc1", "system": "human patients, plasma", "setting": "oral, 600 µg/m2 twice daily day 1, day 5, dose level DL5, median, with: temozolomide 40 mg/m2 daily days 2-6", "Cmax": "23.5 ng/mL"}
{"Compound": "CCCOc1ccc([C@H]2CNC(=O)N2c2ccc3[nH]cnc3c2)cc1", "system": "human elderly fasted, CSF", "setting": "oral, 300 mg twice daily capsule, day 7, geometric mean", "Cmax": "37.3 ng/mL"}
{"Compound": "O=C(c1cc(Cc2n[nH]c(=O)c3ccccc23)ccc1F)N1CCN(C(=O)C2CC2)CC1", "test": "HPLC-MS/MS", "system": "human patients, plasma", "setting": "oral, 25 mg twice daily, dose level -1, cycle 1 day 1, with: carboplatin target AUC 3", "Cmax": "1270 ng/mL"}
{"Compound": "CCCCOc1nc(N)c2c(n1)N(Cc1cccc(CN3CCCC3)c1)CC(=O)N2", "system": "human HIV patients on ART", "setting": "oral, 2 mg, mean", "Cmax": "1.13 ng/mL"}
{"Compound": "CNC(=O)c1c(C)oc2cc(Oc3ncnc4cc(OC)c(OC)cc34)ccc12", "system": "human, mild hepatic impairment, plasma", "setting": "oral, 2 mg, single dose", "Cmax": "136 ng/mL"}
{"Compound": "Cc1noc(C)c1-c1cc(C(O)(c2ccccn2)c2ccccn2)c2nc(C3CC3)[nH]c2c1", "system": "human patients, plasma", "setting": "oral, 4 mg, cycle 1 day 8, monotherapy", "Cmax": "407 ng/mL"}
{"Compound": "CN(C(=O)C(C)(C)c1cc(C(F)(F)F)cc(C(F)(F)F)c1)c1cnc(N2C[C@H]3COCCN3C[C@H]2CO)cc1-c1ccc(F)cc1[14CH3]", "test": "refers to: total radioactivity", "system": "human, plasma", "setting": "oral, 120 mg", "Cmax": "960 ng equiv/mL"}
{"Compound": "Cc1cc(Nc2cc3ncccc3c(N[C@@H]3C[C@H]4CC[C@@H](C3)N4CCC#N)n2)n[nH]1", "system": "human, plasma", "setting": "20 mg, day 1, geometric mean", "Cmax": "0.2 ng/mL"}
{"Compound": "O=C(O)CCCCCCCCCCCCCCCCC(=O)O", "system": "human, plasma", "setting": "concentration not given, endogenous baseline diurnal", "Cmax": "110 ± 9 nM"}
{"Compound": "CCOc1c([C@H](C)n2nc(C)c3c(N)ncnc32)cc(Cl)c(F)c1[C@@H]1CNC(=O)C1", "system": "human patients", "setting": "oral, 45 mg once daily, cycle 1 day 15, monotherapy", "Cmax": "5530 ± 3210 nM"}
{"Compound": "COc1nnc2ccc(N3CCC(c4ccc(OCCN5CCN(C)C(=O)[C@H]5C)cc4)CC3)nn12", "system": "human, plasma", "setting": "oral, 2 mg once daily, multiple dose, monotherapy", "Cmax": "22.3 nM"}
{"Compound": "Cn1cncc1[C@@](N)(c1ccc(Cl)cc1)c1ccc2c(c1)c(-c1cccc(Cl)c1)cc(=O)n2C", "system": "healthy human subjects, plasma", "setting": "oral, 50 mg, fed (high-fat meal)", "Cmax": "136 ng/mL"}
{"Compound": "FC(F)(F)c1ccc(CNc2ccc(Cc3c[nH]c4ncc(Cl)cc34)cn2)cn1", "test": "refers to: total radioactivity", "system": "healthy human male, whole blood", "setting": "oral, 400 mg [14C]-labelled", "Cmax": "2800 ng/mL"}
{"Compound": "C#C[C@]1(O)CC[C@H]2[C@@H]3CCc4cc(O)ccc4[C@H]3CC[C@@]21C", "system": "human female, plasma", "setting": "single dose oral contraceptive, with: ritlecitinib 50 mg once daily multiple doses", "Cmax": "62.2 ng/mL"}
{"Compound": "C[C@H](Oc1ccc(Br)cc1-c1ccon1)C(=O)O", "system": "healthy male humans, plasma", "setting": "oral, 400 mg twice daily, day 1", "Cmax": "28500 ng/mL"}
{"Compound": "Cc1cc(-c2nccc3c2ccn3CC(=O)Nc2ccc(-c3cnccn3)cn2)ccn1", "system": "human, plasma", "setting": "oral, 7 mg single dose, total", "Cmax": "57 nM"}
{"Compound": "COc1cc([C@@H]2Oc3ccc([C@H]4Oc5cc(O)cc(O)c5C(=O)[C@@H]4O)cc3O[C@H]2CO)ccc1O", "system": "OATP1B1/1B3 humanized mice, plasma", "setting": "oral gavage, 500 mg/kg silymarin", "Cmax": "440 nM"}
{"Compound": "C=CC(=O)N(C)CCOc1c(N)ncnc1-c1cc(F)cc(NC(=O)c2ccc(C3CC3)cc2F)c1C", "system": "human, whole blood", "setting": "oral, 1.5 mg, single ascending dose, fasted", "Cmax": "1.26 ng/mL"}
{"Compound": "C#C[C@]1(CO)O[C@@H](n2cnc3c(N)nc(F)nc32)C[C@@H]1O", "system": "human, plasma", "setting": "oral, 15 mg, single dose, geometric mean", "Cmax": "385 nM"}
{"Compound": "C=CC(=O)NC1CCN(c2ncc3ncnc(Nc4ccc(Oc5ccc6c(c5)ncn6C)c(C)c4)c3n2)CC1", "system": "human, male, plasma", "setting": "oral, 30 mg single dose, fed, geometric mean", "Cmax": "208 nM"}
{"Compound": "Cc1cc(OCCOCCC(F)(F)P(=O)(O)O)ccc1CCc1cnc2c(N)nc3cc(CCC(=O)O)ccc3c2c1", "system": "human, serum", "setting": "intratumoral, 100 µg every 2 weeks, cycle 1 day 1", "Cmax": "1.78 ng/mL"}
{"Compound": "Cn1cc(-c2ccc(S(=O)(=O)[C@@H]3C[C@@H](C(=O)NC4(C#N)CC4)N(C(=O)C4(C(F)(F)F)CC4)C3)c(C(F)(F)F)c2)cn1", "test": "noncompartmental analysis", "system": "human, plasma", "setting": "oral, 100 mg, day 1, with food, geometric mean", "Cmax": "955 ng/mL"}
{"Compound": "CC(C)(C(=O)N1CCOc2c(C#N)cncc2C1)C(F)F", "system": "humans, both sexes, plasma", "setting": "oral, 20 mg twice daily, day 14, geometric mean", "Cmax": "353 ng/mL"}
{"Compound": "CN(CC#N)C(=O)C[C@H](Nc1nc2ccccc2[nH]1)c1cccc(C(F)(F)F)c1", "system": "human", "setting": "intravenous infusion, 4 mg/kg, 1 mg/mL formulation", "Cmax": "8030 ± 999 ng/mL"}
{"Compound": "CC(C)(Sc1ccncc1-c1ccc(C#N)c2ccccc12)C(=O)O", "system": "human, plasma", "setting": "oral, 5 mg once daily, geometric mean, with: febuxostat 40 mg", "Cmax": "14.5 ng/mL"}
{"Compound": "COc1cc(Nc2c(C#N)cnc3cc(OCCCN4CCN(C)CC4)c(OC)cc23)c(Cl)cc1Cl", "system": "human, normal hepatic function (NCI), plasma", "setting": "single dose, geometric mean, total drug", "Cmax": "41.3 ng/mL"}
{"Compound": "Cc1nc(-c2ccc(OCC(C)C)c(C#N)c2)sc1C(=O)O", "system": "human, plasma", "setting": "oral, 40 mg once daily, with: verinurad 10 mg", "Cmax": "1100 ng/mL"}
{"Compound": "C[C@@H](Oc1ccc(S(C)(=O)=O)cc1C(=O)N1C[C@@H]2C[C@]2(c2cc(C(F)(F)F)on2)C1)C(F)(F)F", "system": "healthy human volunteers, fed high-fat meal, plasma", "setting": "oral, 10 mg single, adjusted geometric mean", "Cmax": "142 nM"}
{"note": "A few entries again:"}
{"Compound": "O=C(c1cc(Cc2n[nH]c(=O)c3ccccc23)ccc1F)N1CCN(C(=O)C2CC2)CC1", "test": "HPLC-MS/MS", "system": "human patients, plasma", "setting": "oral, 25 mg twice daily, dose level -1, cycle 1 day 1, with: carboplatin target AUC 3", "Cmax": "1270 ng/mL"}
{"Compound": "CCCCOc1nc(N)c2c(n1)N(Cc1cccc(CN3CCCC3)c1)CC(=O)N2", "system": "human HIV patients on ART", "setting": "oral, 2 mg, mean", "Cmax": "1.13 ng/mL"}
{"Compound": "CNC(=O)c1c(C)oc2cc(Oc3ncnc4cc(OC)c(OC)cc34)ccc12", "system": "human, mild hepatic impairment, plasma", "setting": "oral, 2 mg, single dose", "Cmax": "136 ng/mL"}
{"Compound": "Cc1noc(C)c1-c1cc(C(O)(c2ccccn2)c2ccccn2)c2nc(C3CC3)[nH]c2c1", "system": "human patients, plasma", "setting": "oral, 4 mg, cycle 1 day 8, monotherapy", "Cmax": "407 ng/mL"}
{"Compound": "CN(C(=O)C(C)(C)c1cc(C(F)(F)F)cc(C(F)(F)F)c1)c1cnc(N2C[C@H]3COCCN3C[C@H]2CO)cc1-c1ccc(F)cc1[14CH3]", "test": "refers to: total radioactivity", "system": "human, plasma", "setting": "oral, 120 mg", "Cmax": "960 ng equiv/mL"}
{"Compound": "Cc1cc(Nc2cc3ncccc3c(N[C@@H]3C[C@H]4CC[C@@H](C3)N4CCC#N)n2)n[nH]1", "system": "human, plasma", "setting": "20 mg, day 1, geometric mean", "Cmax": "0.2 ng/mL"}
